Assay results collected from several papers.
Numbers after ± are the reported error.

SMILES	test system	setting	tissue uptake [%ID/g]
CSCC[C@H](NC(=O)[C@H](CC(C)C)NC(=O)[C@H](Cc1c[nH]cn1)NC(=O)CNC(=O)[C@@H](NC(=O)[C@H](C)NC(=O)[C@H](Cc1c[nH]c2ccccc12)NC(=O)[C@H](CCC(N)=O)NC(=O)CCCCCNC(=O)CNC(=O)CNC(=O)CNC(=O)CSC(C)=O)C(C)C)C(N)=O [technetium-99m labelled]	nude mouse, PC-3 xenograft, bone	90 min	0.24 ± 0.08
N=C(N)NCCC[C@H](NC(=O)[C@H](CCCCN)NC(=O)[C@H](CCC(N)=O)NC(=O)CCOCCOCCOCCNC(=O)CN1CCN(CC(=O)O)CCN(CC(=O)O)CCN(CC(=O)O)CC1)C(=O)N[C@@H](CCCCN)C(=O)N[C@@H](CCCNC(=N)N)C(=O)N[C@@H](CCCCN)C(=O)N[C@@H](CCCCN)C(=O)N[C@@H](CO)C(=O)N[C@@H](CCCNC(=N)N)C(=O)N[C@@H](Cc1ccc(O)cc1)C(=O)N[C@@H](CCCCN)C(=O)N[C@@H](CO)C(=O)O [copper-64 labelled]	male C57BL/6 mice, B16-F10 tumour, spleen	intravenous, 60 min	0.97 ± 0.1
CCCC[C@H](NC(=O)COCCOCCNC(=O)c1ccc(NN)nc1)C(=O)N[C@H]1CC(=O)NCCCC[C@@H](C(N)=O)NC(=O)[C@H](Cc2c[nH]c3ccccc23)NC(=O)[C@H](CCCNC(=N)N)NC(=O)[C@@H](Cc2ccccc2)NC(=O)[C@H](Cc2c[nH]cn2)NC1=O [technetium-99m labelled]	C57 mouse, female, B16/F1 melanoma, lung	intravenous, 0.037 MBq, 2 h	0.27 ± 0.12
N=C(N)NCCC[C@@H]1NC(=O)[C@H](CCCCNC(=O)CC[C@H](NC(=O)CCOCCOCCOCCOCCNC(=O)CC[C@H](NC(=O)CN2CCN(CC(=O)O)CCN(CC(=O)O)CCN(CC(=O)O)CC2)C(=O)NCCOCCOCCOCCOCCC(=O)N[C@@H](CCC(=O)NCCCC[C@@H]2NC(=O)[C@@H](Cc3ccccc3)NC(=O)[C@H](CC(=O)O)NC(=O)CNC(=O)[C@H](CCCNC(=N)N)NC2=O)C(=O)NCCCC[C@@H]2NC(=O)[C@@H](Cc3ccccc3)NC(=O)[C@H](CC(=O)O)NC(=O)CNC(=O)[C@H](CCCNC(=N)N)NC2=O)C(=O)NCCCC[C@@H]2NC(=O)[C@@H](Cc3ccccc3)NC(=O)[C@H](CC(=O)O)NC(=O)CNC(=O)[C@H](CCCNC(=N)N)NC2=O)NC(=O)[C@@H](Cc2ccccc2)NC(=O)[C@H](CC(=O)O)NC(=O)CNC1=O [indium-111 labelled]	female athymic nude mice, brain	intravenous, 3 µCi, 72 h, U-87 MG glioma xenograft	0.02 ± 0.01
CCCC[C@H](NC(=O)CNC(=O)CNC(=O)c1ccc(NN)nc1)C(=O)N[C@H]1CC(=O)NCCCC[C@@H](C(N)=O)NC(=O)[C@H](Cc2c[nH]c3ccccc23)NC(=O)[C@H](CCCNC(=N)N)NC(=O)[C@@H](Cc2ccccc2)NC(=O)[C@H](Cc2c[nH]cn2)NC1=O [technetium-99m labelled]	C57 mouse, B16/F1 melanoma-bearing, liver	intravenous, 4 h	0.6 ± 0.19
CCCC[C@H](NC(=O)CCCCCCCNC(=O)c1ccc(NN)nc1)C(=O)N[C@H]1CC(=O)NCCCC[C@@H](C(N)=O)NC(=O)[C@H](Cc2c[nH]c3ccccc23)NC(=O)[C@H](CCCNC(=N)N)NC(=O)[C@@H](Cc2ccccc2)NC(=O)[C@H](Cc2c[nH]cn2)NC1=O [technetium-99m labelled]	C57 mouse, B16/F1 melanoma, stomach	2 h, with: L-lysine 12 mg co-injected	0.97 ± 0.36
N=C(N)NCCC[C@@H]1NC(=O)[C@H](CCCCNC(=O)CNC(=O)CNC(=O)CNC(=O)CC[C@H](NC(=O)CCOCCOCCOCCOCCNC(=O)CC[C@H](NC(=O)CN2CCN(CC(=O)O)CCN(CC(=O)O)CCN(CC(=O)O)CC2)C(=O)NCCOCCOCCOCCOCCC(=O)N[C@@H](CCC(=O)NCC(=O)NCC(=O)NCC(=O)NCCCC[C@@H]2NC(=O)[C@@H](Cc3ccccc3)NC(=O)[C@H](CC(=O)O)NC(=O)CNC(=O)[C@H](CCCNC(=N)N)NC2=O)C(=O)NCC(=O)NCC(=O)NCC(=O)NCCCC[C@@H]2NC(=O)[C@@H](Cc3ccccc3)NC(=O)[C@H](CC(=O)O)NC(=O)CNC(=O)[C@H](CCCNC(=N)N)NC2=O)C(=O)NCC(=O)NCC(=O)NCC(=O)NCCCC[C@@H]2NC(=O)[C@@H](Cc3ccccc3)NC(=O)[C@H](CC(=O)O)NC(=O)CNC(=O)[C@H](CCCNC(=N)N)NC2=O)NC(=O)[C@@H](Cc2ccccc2)NC(=O)[C@H](CC(=O)O)NC(=O)CNC1=O [indium-111 labelled]	female athymic nude mice, spleen	intravenous, 3 µCi, 0.5 h, U-87 MG glioma xenograft	2.97 ± 0.61
CSCC[C@H](NC(=O)[C@H](CC(C)C)NC(=O)[C@H](Cc1c[nH]cn1)NC(=O)CNC(=O)[C@@H](NC(=O)[C@H](C)NC(=O)[C@H](Cc1c[nH]c2ccccc12)NC(=O)[C@H](CCC(N)=O)NC(=O)CNC(=O)[C@H](CO)NC(=O)CNC(=O)CCCCCCCNC(=O)CCC(=O)Nc1ccc(CNC23CNCCNCC(N)(CNCCNC2)CNCCNC3)cc1)C(C)C)C(N)=O [copper-64 labelled]	female SCID mice, PC-3 xenograft, spleen	intravenous, 0.6 MBq, 4 h	1.07 ± 0.066
N=C(N)NCCC[C@@H]1NC(=O)[C@H](CCCCNC(=O)CNC(=O)CNC(=O)CNC(=O)CC[C@H](NC(=O)c2ccc(NN=Cc3ccccc3S(=O)(=O)O)nc2)C(=O)NCC(=O)NCC(=O)NCC(=O)NCCCC[C@@H]2NC(=O)[C@@H](Cc3ccccc3)NC(=O)[C@H](CC(=O)O)NC(=O)CNC(=O)[C@H](CCCNC(=N)N)NC2=O)NC(=O)[C@@H](Cc2ccccc2)NC(=O)[C@H](CC(=O)O)NC(=O)CNC1=O [technetium-99m labelled]	athymic nu/nu mouse, female, MDA-MB-435 xenograft, tumour	intravenous, 2 µCi, 60 min	7.86 ± 2.23
N=C(N)NCCC[C@@H]1NC(=O)[C@H](CCCCNC(=O)CC[C@H](NC(=O)CCOCCOCCOCCOCCNC(=O)CN2CCN(CC(=O)O)CCN(CC(=O)O)CCN(CC(=O)O)CC2)C(=O)NCCCC[C@@H]2NC(=O)[C@@H](Cc3ccccc3)NC(=O)[C@H](CC(=O)O)NC(=O)CNC(=O)[C@H](CCCNC(=N)N)NC2=O)NC(=O)[C@@H](Cc2ccccc2)NC(=O)[C@H](CC(=O)O)NC(=O)CNC1=O [indium-111 labelled]	athymic nude mice, female, U-87 MG glioma xenograft, U-87 MG tumour	intravenous, 3 µCi, 4 h	4.79 ± 0.61

A few entries again:
SMILES	test system	setting	tissue uptake [%ID/g]
N=C(N)NCCC[C@@H]1NC(=O)[C@H](CCCCNC(=O)CC[C@H](NC(=O)CCOCCOCCOCCOCCNC(=O)CN2CCN(CC(=O)O)CCN(CC(=O)O)CCN(CC(=O)O)CC2)C(=O)NCCCC[C@@H]2NC(=O)[C@@H](Cc3ccccc3)NC(=O)[C@H](CC(=O)O)NC(=O)CNC(=O)[C@H](CCCNC(=N)N)NC2=O)NC(=O)[C@@H](Cc2ccccc2)NC(=O)[C@H](CC(=O)O)NC(=O)CNC1=O [indium-111 labelled]	athymic nude mice, female, U-87 MG glioma xenograft, U-87 MG tumour	intravenous, 3 µCi, 4 h	4.79 ± 0.61
N=C(N)NCCC[C@H](NC(=O)[C@H](CCCCN)NC(=O)[C@H](CCC(N)=O)NC(=O)CCOCCOCCOCCNC(=O)CN1CCN(CC(=O)O)CCN(CC(=O)O)CCN(CC(=O)O)CC1)C(=O)N[C@@H](CCCCN)C(=O)N[C@@H](CCCNC(=N)N)C(=O)N[C@@H](CCCCN)C(=O)N[C@@H](CCCCN)C(=O)N[C@@H](CO)C(=O)N[C@@H](CCCNC(=N)N)C(=O)N[C@@H](Cc1ccc(O)cc1)C(=O)N[C@@H](CCCCN)C(=O)N[C@@H](CO)C(=O)O [copper-64 labelled]	male C57BL/6 mice, B16-F10 tumour, spleen	intravenous, 60 min	0.97 ± 0.1
